Results from different studies.
Parts stem from different laboratories: compare values within a part only.

Set 1 — technique: protein-binding microarray; molecule type: double-stranded DNA, one strand shown; matrix: in vitro; tested at: 2540 nM top; notes: 60-bp whole probe; together with: salmon DNA 0.4 mg/ml; baseline: random background probes; reading: higher = stronger binding; quantity: fitted relative affinity; shared flanks, not repeated: GCCTAGCAC … GTCTTGATTCGCTTGACGCTGCTG
Target: Interferon regulatory factor 3, full length, phosphomimetic (IRF3, Homo sapiens, UniProt Q14653, residues 1-427, S386D/S396D/S398D/S402D/T404D/S405D)
Target sequence (chain): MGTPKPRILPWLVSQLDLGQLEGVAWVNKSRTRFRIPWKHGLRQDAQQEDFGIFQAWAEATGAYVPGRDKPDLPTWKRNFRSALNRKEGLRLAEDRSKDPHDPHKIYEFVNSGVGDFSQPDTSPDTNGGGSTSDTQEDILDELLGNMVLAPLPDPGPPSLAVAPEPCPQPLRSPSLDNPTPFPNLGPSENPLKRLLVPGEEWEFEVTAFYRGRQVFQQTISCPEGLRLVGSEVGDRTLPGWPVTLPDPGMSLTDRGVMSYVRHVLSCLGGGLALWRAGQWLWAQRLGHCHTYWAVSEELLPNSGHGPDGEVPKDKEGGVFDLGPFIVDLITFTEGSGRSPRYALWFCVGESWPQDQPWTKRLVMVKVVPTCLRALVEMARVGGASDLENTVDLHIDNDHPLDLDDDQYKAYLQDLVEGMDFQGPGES
GCCGATTTCAGTATCGAGACGTGCTAG: 2.98 z-score
GAGGAGATGAGAAACGATGAGTGCTAG: -0.438 z-score
TTACATCTCAGTTTCGATTAGTGCTAG: 3.77 z-score
ACAAGTTTCTCCTTTCCAAAGTGCTAG: 3.86 z-score
GACGGTCTCGGTCTCGGGTCGTGCTAG: 1.47 z-score
GACGGTTTCCTACTGCCGACGTGCTAG: 6.01 z-score
GACGATTTTGGGTATCGAGACGTGCTA: 0.472 z-score

Set 2 — technique: protein-binding microarray; molecule type: double-stranded DNA, one strand shown; matrix: in vitro; tested at: 0.8 µM; notes: whole 60-bp probe, no competitor; reading: higher = stronger binding; quantity: fluorescence intensity
Target: Centromere-binding protein 1, full length, N-terminal tag (CBF1, Saccharomyces cerevisiae, UniProt P17106, residues 1-351)
UniProt P17106, sequence (whole entry, looked up): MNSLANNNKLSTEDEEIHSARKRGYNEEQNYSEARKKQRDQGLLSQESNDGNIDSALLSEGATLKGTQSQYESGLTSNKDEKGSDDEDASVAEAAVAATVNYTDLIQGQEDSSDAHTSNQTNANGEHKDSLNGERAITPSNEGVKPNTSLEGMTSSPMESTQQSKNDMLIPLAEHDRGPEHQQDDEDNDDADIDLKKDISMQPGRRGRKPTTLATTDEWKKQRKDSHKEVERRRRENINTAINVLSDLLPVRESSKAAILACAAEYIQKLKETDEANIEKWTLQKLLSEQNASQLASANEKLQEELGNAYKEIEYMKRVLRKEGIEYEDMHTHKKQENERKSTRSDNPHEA
GAAAAATACAAAGACAACGTGGGCTGATTACAGTAGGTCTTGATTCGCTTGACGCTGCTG: 621 a.u.
TGTACGAAGCTATATTACGTGGGTATAGTAGTTAGGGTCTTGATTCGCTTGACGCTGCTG: 506 a.u.
GAAATCAGCGCGTATGTGGTGTGGTGTGTGTTTTAGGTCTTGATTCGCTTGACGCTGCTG: 555 a.u.
CTAATTTAGGGAAGTCACGGTAACTAATGGATTTTCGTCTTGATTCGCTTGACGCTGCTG: 666 a.u.
CTAAAGTACTGTATACACATGATAATAACTGGTTTCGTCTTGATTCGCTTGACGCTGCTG: 694 a.u.
CTAACAACGTCGACGCACGCGATAGCTCATTTCTTCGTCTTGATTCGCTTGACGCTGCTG: 564 a.u.
CCTAACTACTATATACATGTGTGATAGCTTCGTACAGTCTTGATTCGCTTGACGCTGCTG: 566 a.u.

Set 3 — technique: universal PBM; molecule type: double-stranded DNA, one strand shown; matrix: in vitro; tested at: not given; reading: higher = stronger binding; quantity: E-score
Target: Sal-like protein 4, full length isoform B (SALL4, Homo sapiens, UniProt Q9UJQ4-2, residues 1-616)
Notes: 8-mer, flanks averaged, mean of replicates
GAGTCGCA: -0.101
CCCGACCG: -0.32
CCCCTTGA: -0.0827
ACTTCATG: -0.132
GTGGCACA: -0.154
CCGCGGAG: -0.377
CACGAGTC: -0.128

Other studies, line by line
PhoQ, residues 284 288 289 292 302 303 NLALSC — fold induction (PhoP, residues 12 14 15 18 19 LYHSL (Escherichia coli, UniProt P23836); Sort-seq, refers to: YFP reporter; E. coli; PhoQ-PhoP variant library, together with: 10 µM Mg2+; baseline: high Mg2+ state, higher = stronger signaling): 1.67

Some of these lines once more (set 1):
GAGGAGATGAGAAACGATGAGTGCTAG: -0.438 z-score
TTACATCTCAGTTTCGATTAGTGCTAG: 3.77 z-score
